Published values collected from several papers.
Each line is one published result; not all experiments were run side by side. Several values in a cell are separate wells, animals, samples, runs or records. ± gives the spread as reported.

SMILES | cell line | assay | conditions | how to read | endpoint | value
COc1ccccc1-c1ccncc1C(=O)Nc1nnc(OCc2ccc(Cl)cc2)s1 | HCT-116 BRCA2 wild-type | – | 4 µM | reference: untreated | colony survival | 97.3%
COc1ccc(NC(=O)c2ccc3[nH]c(-c4ccc(N(C)C)cc4)nc3c2)cn1 | HCT-116 | proximity ligation, measured: endogenous ERK-MYD88 complex | unit not given | reference: DMSO | ERK-MYD88 interaction | 0.469
O=C(C[Se]C(=O)c1ccc2ccccc2c1)Nc1cccc(C(F)(F)F)c1 | NCI60 breast subpanel | NCI60 five-dose screen | – | – | CC50 | 10.5 µM
CC(C)(C)C(=O)OCOP(=O)(OCOC(=O)C(C)(C)C)C1CCCN(O)C1=O (stereo not drawn) | Malme-3M | – | – | – | log GI50 | -6.37 log M
O=C(O)c1ccc(-c2nc(-c3ccccc3Cl)c3sccn23)cc1 | K562 | megakaryocyte differentiation, flow cytometry | 0.01 mM, 72 h | – | CD61-positive cells | 0.5% and 8.9%
O=c1c(O)c(-c2ccc(O)c(O)c2)oc2cc(O)cc(O)c12 | SH-SY5Y Aβ-GFP cells | ROS reduction, CellROX | – | – | EC50 | 6.8 µM
CC(C)[C@H](NC(=O)[C@H](CCCNC(=N)N)NC(=O)[C@@H]1CCCN1C(=O)[C@@H](NC(=O)[C@H](C)NC(=O)[C@H](Cc1ccc(O)cc1)NC(=O)[C@H](CCC(N)=O)NC(=O)[C@H](CCCCN)NC(=O)[C@H](CCCNC(=N)N)NC(=O)[C@@H]1CCCN1C(=O)[C@H](CCC(=O)O)NC(=O)[C@@H](NC(=O)[C@H](C)N)[C@@H](C)O)[C@@H](C)O)C(=O)N[C@@H](Cc1ccccc1)C(=O)N[C@@H](Cc1c[nH]c2ccccc12)C(=O)N[C@H](C(=O)N[C@@H](CC(=O)O)C(=O)N[C@@H](C)C(=O)N1CCC[C@H]1C(=O)NCC(=O)NCCOCCOCCOCCOCCOCCOCCOCCOCCOCCOCCOCCOCCC(=O)N[C@@H](CS)C(N)=O)[C@@H](C)O | H1355 lung adenocarcinoma | cell binding, phage binding, measured: output/input phage | 10 min, 37 °C | reference: control phage | selectivity ratio | 4.3 ± 2.6
O=C(C[Se]C(=O)C12CC3CC(CC(C3)C1)C2)Nc1cccc(C(F)(F)F)c1 | NCI60 breast subpanel | NCI60 five-dose screen | – | – | CC50 | 55 µM
CC[C@H](C)[C@H](NC(=O)[C@@H](NC(=O)c1cccc(Cl)c1Cl)C(C)(C)C)C(=O)N[C@H](C(=O)N[C@H](C(=O)N[C@H](C(=O)N[C@@H](CCC(N)=O)C(=O)N[C@@H](Cc1c[nH]cn1)C(=O)N[C@H](CC(C)C)C(=O)N[C@@H](CO)C(=O)NCCC(=O)N[C@@H](CCCCNC(=O)CC[C@@H]1NC(=O)[C@@H](CCCNC(=N)N)NC(=O)[C@H](CCCNC(=N)N)NC(=O)[C@@H](CCCNC(=N)N)NC(=O)[C@H](CCCNC(=N)N)NC(=O)[C@H](Cc2ccc3ccccc3c2)NC(=O)[C@@H](Cc2ccccc2)NC1=O)C(N)=O)[C@@H](C)O)[C@@H](C)CC)C(C)(C)C | mouse macrophages | immunofluorescence | 1 µM, together with: LPS 100 ng/mL | – | NFATc3 nuclear translocation | inhibited
